# Results gathered from unrelated publications.
# Numbered parts are unrelated; each lists some results of a single study.

# Block 1
# Target: RNA binding protein fox-1 homolog 2, RRM domain, GST-SBP tag (RBFOX2, Homo sapiens, UniProt O43251-10, residues 100-194)
# Technique: RNA Bind-n-Seq
# Molecule type: RNA
# Sample: in vitro
# Tested at: 365 nM
# Notes: natural RNA segment, single round, ends assumed
# Relative to: no-protein control
# Reading: higher = stronger binding
# Shared flanks, not repeated: GGGAGUUCUACAGUCCGACGAUC … UGGAAUUCUCGGGUGCCAA
# Residues (chain): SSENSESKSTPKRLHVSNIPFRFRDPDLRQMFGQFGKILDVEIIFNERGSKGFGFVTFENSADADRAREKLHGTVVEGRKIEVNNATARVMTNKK
Oligonucleotide,RBNS enrichment (R)
GUGUUUUAUAUUGAGUGCACUUCUGUUCAUUUCCAUUGCUGCUUAUAUGCAGUGUUAGCCGAAUUAGAUUUACAAGACAAUCUAAGCUUUCCGGAUAAUUUUAUAUAUCA,0.917
CUCUCCACACAUCAUUUACUUCAUGCUGUGUACUUAUGUACUGGUUUUUGCAUUUUACUCACUUGAUAAGUCUGCUCCACUGGUUUCAUCAGAUAGACUUGCUGCUACUG,0.6
UGUAGACGUGUUUCAGUGCCUCGUCUGAACAGGAGCCGUUUCACUUCUUUGAAACUCUACAUUUUCCACACGUCUGCUUCAUUUUCAAAAUGAAGGAUGUUUCCCGUAGG,0.342
CCUCCAUCCCAGCCUGUUGCCCUUCAGUUUUCUGGUUGUUUGUGUCGGCAGCGGGCCAACUGUGGUUUCUCUCUUGCCAUGAUGACUUCUAAUUGCCAUGUAUAGUAUGU,1.62
CCUGUGUAGUGUGUACAGAGUGGGUAGGGACUAAACACAGGCCUAGCGUCUAUGAGUCUGUAUUCCUGCUCAGUCAUCAACUUGUGUUCCUAUUGAACAUUUGAUCAGAA,0.248
AGGACCAGAGAAAGCCAGGCUGGAUCGUCACAUGCCGGGGAGCAAUGUGGAUGGCCUGGGGACUCCUGGGUUUUCUCCCUCCCGACUCCCUAAUAAACCCCGUGAACCUU,0.526
AAGCCAUUAGACUUAUAGGUGAUGCAAGCAUCUAAGAGAGAGGUUAAUCACACUAUAGAGGCAUAAGUGGUAUCAGUUUUCAUUUUUCUAAUUGUUUAAACUGUGUUUUA,0.653
UUCUUGAAGAUAUGCUUGUUGCUUUACAACAUAUGUAAGCUAUUCUUUAGCAUAAAUGCAUUCAUUCUUUAAUAAAAAUAUGUUUGCAUUAAUAAAGCUGAGGAGUUUCA,0.265
ACCCCUACCCUGGCUGCACCUGAGCUUGCUGCCCCUGGGGAUGUUGCCCAGUGGCUGUGCACUGCUCUGUGCACGUGCGUGUGUGUGAGUGCACUUGUGUGUGGGUGACU,0.513
CCCAUUCUUGGCCCUGGUCACUAGGGUCCUGGCUAUUCUAGAACUCAGUAAAAUGUAUGUCUAAUGCAACAUUGGCCCUUGUGUAGUACAACUAUUAGCCGUCACAGCUA,0.388
AGCUGGGAUGCUUACUGUGAAAGGGUCUUGUGAGUGACUAAUGGAAUAUAUGGCUGUGAGAUUUUGCUGUUUUUCUUUCCUUUUGAUUUUUUUUUAAUCCUCCCAGUACU,1.34
GGAUCCUCGGGACUCCCCAGACAGGCGUGUGUGAGUGUGUUCUGUCAUGCAGCCUCAGCCCAGGCUAACCCAGUCAGUGUUUUCACCACGUCUGACCUUUCUCUCUGCAC,0.293

# Block 2
# Target: Fragile X messenger ribonucleoprotein 1, C-terminal low-complexity region (Fmr1, Mus musculus, UniProt P35922)
# Technique: RNA Bind-n-Seq
# Molecule type: RNA
# Sample: in vitro
# Tested at: 200 nM
# Notes: whole 134-nt RNA, ends assumed
# With: 150 mM KCl
# Relative to: input library
# Reading: higher = stronger binding
# Shared flanks, not repeated: GGGAGUUCUACAGUCCGACGAUC … UGGAAUUCUCGGGUGUCAAGG
Oligonucleotide,log2 enrichment
UCAAGUCCUGUGCUACACAUCGUAUGUACCGAAUCGGGGUGGGGUGGGGAGGGGAAAGUAUUAUGUUACGCCGUUCGGAUCUGCACUUCC,1.41
CCCGAGCCGGAGAGGGAGCGCGAGCCGCGCCGGCCCCGGUCGGGCCUCCGAAACCAUGAACUUUCUGCUGUCUUGGGUGCAUUGGAGCCU,-0.26
GCAGGAAGUAAAAACAAAUGGAAAUGCUUCGGAUAGUGGCAGGGGUGGGGGUUGCUAAGGAAAGGAAAGGAUGGGAGUGGGUAAAGAGUU,0.0647
UGUGCUACACAUCGUAUGUACCGAAUCGGGAAAAAAAGGGGAAAAAAAGGGGAAAAAAAGGGAAAGUAUUAUGUUACGCCGUUCGGAUCU,-0.156
AGUCCUGUGCUACACAUCGUAUGUACCGAAUCGGUUUUUUGGUUUUUUGGUUUUUUGGAAAGUAUUAUGUUACGCCGUUCGGAUCUGCAC,-0.859
GCAGGAAGUAAAAACAAAUGGAAAUGCUUCGGAUAGUGGCAGGGGUGGGGGUUACUAAGGAAAGGGUGGGAUGGGAGUGGGUAAAGAGUU,0.118
AAGUCCUGUGCUACACAUCGUAUGUACCGAAUCGGGAAAGGGUUUUUUUGGGUGGGAAAGUAUUAUGUUACGCCGUUCGGAUCUGCACUU,0.824
GCAGGAAGUAAAAACAAAUGGAAAUACUUCGGAUAGUGGCAGGGGUGGGGGUUGCUAAGGAAAGGGUGGGAUGGGAGUGGGUAAAGAGUU,0.295
UGGGAGGUGGAUUUUGUUUAUUUUUUUAGCUCAUUUCCAGGGGUGGGAAUUUUUUUUUAAUAUGUGUCAUGAAGAAAGUUGUUUUUGAAA,0.331
GAAAUUAUGGAAGUGGAAAUUACAAUGAUUUUGGAAAUUAUAACCAGCAACCUUCUAACUACGGUCCAAUGAAGAGUGGAAACUUUGGUG,-1.34
CAAGUCCUGUGCUACACAUCGUAUGUACCGAAUCAAAUUUAAAUUUAAACCCAAAAAAGUAUUAUGUUACGCCGUUCGGAUCUGCACUUC,0.185
CCUCAAGUCCUGUGCUACACAUCGUAUGUACCGAAUCGGUGGUUUGGUUUGGAAAGUAUUAUGUUACGCCGUUCGGAUCUGCACUUCCAG,-0.166
AUCAUGCAGGUGGGCAUCUUUGGGAAGUGGGGCAAGGGGGGGAUAGGGAGGGGGGUAACACUUUGGGAACAGGUGGUCCCAGGUCGUUUC,0.636
UCCUGUGCUACACAUCGUAUGUACCGAAUCGGGAAAAAAAGGGAAAAAGGGAAAAAGGGAAAGUAUUAUGUUACGCCGUUCGGAUCUGCA,-0.179

# Block 3
# Target: TAR DNA-binding protein 43, full length, His tag (TARDBP, Homo sapiens, UniProt Q13148, residues 1-414)
# Technique: RNA Bind-n-Seq
# Molecule type: RNA
# Sample: in vitro
# Tested at: 20 nM
# Notes: 6-mer, flanks averaged, single round
# With: 150 mM LiCl
# Relative to: input library
# Reading: higher = stronger binding
Oligonucleotide,6-mer enrichment (R)
AAUUAC,0.905
AAGGGU,1.06
GUACAG,0.906
UGGAAA,0.942
CACGCA,0.881
UUAGGA,0.942
AUGCAG,0.962
ACGACA,0.787
UCUCAU,0.888
UGCUUG,1.16
UAGGCU,0.904
CCCCGG,1.08
CUCGCU,0.835
UGCCCC,1.24
UGAAUC,0.873
GCGUGU,1.55
CCAAUA,0.92
CGCCGC,0.958
UUAUCC,0.965

# Block 4
# Target: Interferon regulatory factor 3, full length, phosphomimetic (IRF3, Homo sapiens, UniProt Q14653, residues 1-427, S386D/S396D/S398D/S402D/T404D/S405D)
# Technique: protein-binding microarray
# Molecule type: double-stranded DNA, one strand shown
# Sample: in vitro
# Tested at: 2540 nM top
# Notes: 60-bp whole probe
# With: salmon DNA 0.4 mg/ml
# Relative to: random background probes
# Reading: higher = stronger binding
# Shared flanks, not repeated: GCCTAGCAC … GTCTTGATTCGCTTGACGCTGCTG
# Construct (chain): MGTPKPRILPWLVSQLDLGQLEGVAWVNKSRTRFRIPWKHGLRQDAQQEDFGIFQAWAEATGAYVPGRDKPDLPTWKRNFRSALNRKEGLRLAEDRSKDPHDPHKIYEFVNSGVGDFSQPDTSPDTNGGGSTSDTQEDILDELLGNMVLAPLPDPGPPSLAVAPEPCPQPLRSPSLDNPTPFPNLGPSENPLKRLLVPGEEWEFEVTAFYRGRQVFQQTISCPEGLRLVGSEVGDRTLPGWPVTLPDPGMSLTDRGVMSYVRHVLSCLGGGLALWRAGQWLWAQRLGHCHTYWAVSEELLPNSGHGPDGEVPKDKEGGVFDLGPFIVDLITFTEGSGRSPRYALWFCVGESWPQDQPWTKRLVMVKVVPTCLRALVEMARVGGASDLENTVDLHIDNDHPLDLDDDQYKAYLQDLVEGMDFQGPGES
Oligonucleotide,fitted relative affinity
TAAGGTTTCGGTATCGGTTAGTGCTAG,8.9 z-score
GGCGGACTGGGGTATCGGGACGTGCTA,-0.777 z-score
GCCGGTATCCTTCTCCTGACGTGCTAG,7.3 z-score
GTCGGTTTCCTTTTCCTGACGTGCTAG,12.6 z-score
GACGGTATCCTTATCCTGGCGTGCTAG,5.43 z-score
GACGGACTGCTACTGCTGACGTGCTAG,-0.685 z-score
TTAGACATCAGTATCGATTAGTGCTAG,0.691 z-score
TACTACATATCACCTCAATCGTGCTAG,0.5 z-score
TTAGGTTCCGGTCTCGGTTAGTGCTAG,4.51 z-score
TTAGGACTGGAGACTGGGTTAGTGCTA,-0.908 z-score
ACCGATTTCCTTCACCCACTGTGCTAG,2.36 z-score
GACGGTCTCGGTATGGGGACGTGCTAG,0.741 z-score
TTCTGAGCCTGGGTGGATGGGTGCTAG,-0.727 z-score
GACGATATGGGGTATCGAGACGTGCTA,-0.289 z-score
TTAGGTATCGGGTATCAGTTAGTGCTA,1.71 z-score
GACGATTTAAGTTTCGAGACGTGCTAG,2.34 z-score
TTAGGTTTCGGGTATCGGTTAGTGCTA,4.39 z-score

# Block 5
# Target: Histone acetyltransferase KAT6A, winged helix 1, GST fusion (KAT6A, Homo sapiens, UniProt Q92794, residues 1-85)
# Technique: protein binding microarray
# Molecule type: double-stranded DNA, one strand shown
# Sample: in vitro
# Tested at: not given
# Notes: 8-mer, flanks averaged, mean of 2 arrays, mostly near background
# Relative to: not given
# Reading: higher = stronger binding
# Target sequence (chain): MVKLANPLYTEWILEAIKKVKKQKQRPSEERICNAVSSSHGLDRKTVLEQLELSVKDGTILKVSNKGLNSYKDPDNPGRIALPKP
Oligonucleotide,E-score
ATGAAGGC,-0.0669
AGTCACCG,0.219
CTGGCCGA,0.182
CCCTGCTC,-0.285
CGTTCACA,-0.042
CTGACAAC,-0.0639
ACGTCAGG,-0.147
ATCCTAAG,-0.193
CCGCCGCC,0.461
ACTTGGTC,-0.0997
CCGACAGC,0.271
CTACTCAA,-0.0971
CAGAGGCG,0.0739
ACTAACCA,-0.18
TCGCCAAA,-0.096
CATCCACA,-0.27
CTAAGCGA,0.0477
ATTTCGCC,-0.0643
ACTATATG,-0.128
AGCAAGCC,-0.0962
GGTTGGGA,-0.135
TACCGGGA,0.28
AGCGATTA,0.124
CCGGCCCG,0.399
CTTGTCGC,0.274

# Block 6
# Target: Sal-like protein 4, full length isoform A (SALL4, Homo sapiens, UniProt Q9UJQ4, residues 1-1053)
# UniProt Q9UJQ4, sequence (whole entry, looked up): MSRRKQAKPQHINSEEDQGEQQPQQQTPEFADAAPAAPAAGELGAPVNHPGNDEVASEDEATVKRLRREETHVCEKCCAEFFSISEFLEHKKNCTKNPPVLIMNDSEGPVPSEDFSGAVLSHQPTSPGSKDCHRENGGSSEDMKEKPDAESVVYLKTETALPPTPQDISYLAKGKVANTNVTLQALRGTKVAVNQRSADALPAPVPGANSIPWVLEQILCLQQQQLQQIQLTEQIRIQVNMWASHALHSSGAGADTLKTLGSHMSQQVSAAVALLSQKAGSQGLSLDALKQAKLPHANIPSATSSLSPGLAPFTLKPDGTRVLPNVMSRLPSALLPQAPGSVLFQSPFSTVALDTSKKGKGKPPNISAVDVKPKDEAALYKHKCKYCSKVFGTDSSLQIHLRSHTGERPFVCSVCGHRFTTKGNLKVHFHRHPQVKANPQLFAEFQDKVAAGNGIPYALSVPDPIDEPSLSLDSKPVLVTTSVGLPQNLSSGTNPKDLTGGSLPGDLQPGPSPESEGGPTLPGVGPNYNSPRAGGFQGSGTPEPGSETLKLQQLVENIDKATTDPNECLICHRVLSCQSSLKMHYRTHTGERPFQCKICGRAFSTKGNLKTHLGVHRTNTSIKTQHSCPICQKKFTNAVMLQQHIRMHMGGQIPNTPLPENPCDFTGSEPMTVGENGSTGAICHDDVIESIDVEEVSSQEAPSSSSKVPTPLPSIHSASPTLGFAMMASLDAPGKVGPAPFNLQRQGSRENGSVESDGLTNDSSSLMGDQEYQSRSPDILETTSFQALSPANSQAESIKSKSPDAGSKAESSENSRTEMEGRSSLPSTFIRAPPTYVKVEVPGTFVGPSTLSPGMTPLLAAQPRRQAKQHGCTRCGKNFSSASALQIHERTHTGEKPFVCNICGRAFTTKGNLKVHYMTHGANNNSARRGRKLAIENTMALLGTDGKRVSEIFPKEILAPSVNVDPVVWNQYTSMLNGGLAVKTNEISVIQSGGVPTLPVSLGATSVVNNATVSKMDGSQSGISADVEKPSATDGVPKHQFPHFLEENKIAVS
# Technique: universal PBM
# Molecule type: double-stranded DNA, one strand shown
# Sample: in vitro
# Tested at: 600 nM
# Notes: 8-mer, flanks averaged, mean of replicates
# Reading: higher = stronger binding
Oligonucleotide,E-score
CAGCCACA,-0.081
CCCCCCTC,-0.33
AGTCAGGC,0.00092
ACAACGTG,-0.0797
AGCGCGAC,-0.208
AATTTGCG,0.045
CGTGCTAC,-0.238
AAATGCAA,0.25
CAGTTAGC,-0.123
ACTGAACA,0.0958
TATACTAA,0.288
CAGATGGG,-0.121
TCCGCGCA,-0.2
GTGGTGTA,0.114
CGCTTGTC,-0.164
ATTTCGTA,0.148

# Further values, each from its own experiment
Molecule,target,test,test system,setting,scale,endpoint,value
"PhoQ, residues 284 288 289 292 302 303 AAQSYM","PhoP, residues 12 14 15 18 19 QYFSL (Escherichia coli, UniProt P23836)","Sort-seq, refers to: YFP reporter",E. coli,"PhoQ-PhoP variant library, with: 10 µM Mg2+","relative to: high Mg2+ state, higher = stronger signaling",fold induction,11.1

# Some of these lines once more (block 4):
Oligonucleotide,fitted relative affinity
TTAGACATCAGTATCGATTAGTGCTAG,0.691 z-score
TACTACATATCACCTCAATCGTGCTAG,0.5 z-score
TTAGGTTCCGGTCTCGGTTAGTGCTAG,4.51 z-score
TTAGGACTGGAGACTGGGTTAGTGCTA,-0.908 z-score
ACCGATTTCCTTCACCCACTGTGCTAG,2.36 z-score
GACGGTCTCGGTATGGGGACGTGCTAG,0.741 z-score
TTCTGAGCCTGGGTGGATGGGTGCTAG,-0.727 z-score
GACGATATGGGGTATCGAGACGTGCTA,-0.289 z-score
TTAGGTATCGGGTATCAGTTAGTGCTA,1.71 z-score
